Measurements gathered from unrelated publications.
A part holds a random share of what one study measured.
Sequence of UniProt P61075 (whole entry, looked up): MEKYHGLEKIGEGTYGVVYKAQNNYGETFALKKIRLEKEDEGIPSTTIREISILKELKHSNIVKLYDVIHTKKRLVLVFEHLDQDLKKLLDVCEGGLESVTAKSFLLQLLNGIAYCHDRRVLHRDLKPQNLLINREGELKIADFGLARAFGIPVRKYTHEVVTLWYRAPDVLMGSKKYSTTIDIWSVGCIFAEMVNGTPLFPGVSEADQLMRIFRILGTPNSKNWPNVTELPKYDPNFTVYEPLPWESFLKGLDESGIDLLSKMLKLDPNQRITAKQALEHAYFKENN
Sequence of UniProt Q6P2M8 (whole entry, looked up): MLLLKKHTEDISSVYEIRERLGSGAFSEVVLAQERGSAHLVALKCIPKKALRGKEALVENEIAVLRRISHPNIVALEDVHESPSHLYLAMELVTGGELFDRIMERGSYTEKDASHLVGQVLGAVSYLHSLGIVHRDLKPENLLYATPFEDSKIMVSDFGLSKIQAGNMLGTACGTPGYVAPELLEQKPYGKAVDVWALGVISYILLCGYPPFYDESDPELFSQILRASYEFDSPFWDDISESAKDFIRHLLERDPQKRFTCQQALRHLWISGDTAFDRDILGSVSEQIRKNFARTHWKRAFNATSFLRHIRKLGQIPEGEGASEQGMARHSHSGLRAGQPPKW
Sequence of UniProt P04629 (whole entry, looked up): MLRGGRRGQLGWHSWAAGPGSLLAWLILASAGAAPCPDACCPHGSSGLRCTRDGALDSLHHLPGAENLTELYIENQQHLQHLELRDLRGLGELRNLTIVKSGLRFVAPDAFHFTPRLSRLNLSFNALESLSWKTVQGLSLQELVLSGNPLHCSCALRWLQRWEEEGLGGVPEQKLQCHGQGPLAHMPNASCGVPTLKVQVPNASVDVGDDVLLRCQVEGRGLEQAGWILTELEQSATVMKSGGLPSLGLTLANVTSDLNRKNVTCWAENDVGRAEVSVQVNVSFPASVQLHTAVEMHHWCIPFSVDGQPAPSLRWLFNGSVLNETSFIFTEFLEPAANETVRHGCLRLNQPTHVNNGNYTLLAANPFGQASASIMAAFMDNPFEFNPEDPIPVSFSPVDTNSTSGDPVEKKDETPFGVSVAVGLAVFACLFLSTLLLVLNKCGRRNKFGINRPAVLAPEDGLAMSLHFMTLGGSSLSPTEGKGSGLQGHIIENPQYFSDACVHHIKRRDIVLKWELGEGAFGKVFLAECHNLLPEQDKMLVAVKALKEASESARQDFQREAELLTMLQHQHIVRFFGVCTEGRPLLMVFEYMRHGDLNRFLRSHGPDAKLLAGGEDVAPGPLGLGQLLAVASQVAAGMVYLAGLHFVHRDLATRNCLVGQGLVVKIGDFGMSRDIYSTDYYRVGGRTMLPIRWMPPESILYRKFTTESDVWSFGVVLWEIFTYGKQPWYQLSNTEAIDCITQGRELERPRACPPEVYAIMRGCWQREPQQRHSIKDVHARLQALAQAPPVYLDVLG
Sequence of UniProt O15111 (whole entry, looked up): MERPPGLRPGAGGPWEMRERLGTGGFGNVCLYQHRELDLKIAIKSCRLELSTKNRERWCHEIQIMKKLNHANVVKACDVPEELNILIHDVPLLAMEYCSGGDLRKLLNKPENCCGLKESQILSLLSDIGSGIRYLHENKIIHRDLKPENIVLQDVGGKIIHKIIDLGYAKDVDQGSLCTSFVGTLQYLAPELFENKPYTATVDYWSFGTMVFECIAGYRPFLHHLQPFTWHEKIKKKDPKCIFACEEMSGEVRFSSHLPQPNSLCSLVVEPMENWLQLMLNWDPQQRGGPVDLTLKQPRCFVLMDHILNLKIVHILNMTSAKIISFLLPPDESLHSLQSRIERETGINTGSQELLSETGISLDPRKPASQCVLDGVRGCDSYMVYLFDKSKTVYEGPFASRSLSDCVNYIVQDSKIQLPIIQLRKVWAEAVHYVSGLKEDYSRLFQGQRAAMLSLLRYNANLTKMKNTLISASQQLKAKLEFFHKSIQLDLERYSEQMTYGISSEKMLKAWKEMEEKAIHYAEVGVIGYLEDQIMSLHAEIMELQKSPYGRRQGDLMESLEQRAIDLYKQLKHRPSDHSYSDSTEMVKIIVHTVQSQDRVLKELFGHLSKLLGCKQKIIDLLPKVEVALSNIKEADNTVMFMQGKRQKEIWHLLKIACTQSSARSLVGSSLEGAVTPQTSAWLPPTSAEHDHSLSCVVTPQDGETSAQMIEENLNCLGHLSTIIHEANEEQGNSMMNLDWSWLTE

Series 1 — observed: enzyme activity; mode: inhibitor; concentration: 0.5 µM; relative to: control; measurement: remaining activity
Structure (SMILES): N/C(=N\[N+](=O)[O-])N/N=C\c1ccc(-c2cccc([N+](=O)[O-])c2)o1
target = ZAP70 (Homo sapiens, UniProt P43403); result = 93.1%
target = CHUK (Homo sapiens, UniProt O15111); result = 88.1%
target = NTRK1 (Homo sapiens, UniProt P04629); result = 96%

Series 2 — cell line: A-375; concentration: 100 µM; time: 36 h; measurement: viability
SMILES = NC(=O)C[S@@+]([O-])C(c1ccccc1)c1ccccc1; result = 123%
SMILES = COc1ccc(C(CN(C)C)C2(O)CCCCC2)cc1 (centres unmarked); result = 114%
SMILES = Oc1cccc2cccnc12; result = 41.1%
SMILES = COc1ccc(CN2CCNCC2)c(OC)c1OC; result = 113%

Mixed results
POLQ ATPase domain: DNA polymerase theta, ATPase domain (POLQ, Homo sapiens, UniProt O75417)
Sequence of UniProt O75417 (whole entry, unmodified, looked up): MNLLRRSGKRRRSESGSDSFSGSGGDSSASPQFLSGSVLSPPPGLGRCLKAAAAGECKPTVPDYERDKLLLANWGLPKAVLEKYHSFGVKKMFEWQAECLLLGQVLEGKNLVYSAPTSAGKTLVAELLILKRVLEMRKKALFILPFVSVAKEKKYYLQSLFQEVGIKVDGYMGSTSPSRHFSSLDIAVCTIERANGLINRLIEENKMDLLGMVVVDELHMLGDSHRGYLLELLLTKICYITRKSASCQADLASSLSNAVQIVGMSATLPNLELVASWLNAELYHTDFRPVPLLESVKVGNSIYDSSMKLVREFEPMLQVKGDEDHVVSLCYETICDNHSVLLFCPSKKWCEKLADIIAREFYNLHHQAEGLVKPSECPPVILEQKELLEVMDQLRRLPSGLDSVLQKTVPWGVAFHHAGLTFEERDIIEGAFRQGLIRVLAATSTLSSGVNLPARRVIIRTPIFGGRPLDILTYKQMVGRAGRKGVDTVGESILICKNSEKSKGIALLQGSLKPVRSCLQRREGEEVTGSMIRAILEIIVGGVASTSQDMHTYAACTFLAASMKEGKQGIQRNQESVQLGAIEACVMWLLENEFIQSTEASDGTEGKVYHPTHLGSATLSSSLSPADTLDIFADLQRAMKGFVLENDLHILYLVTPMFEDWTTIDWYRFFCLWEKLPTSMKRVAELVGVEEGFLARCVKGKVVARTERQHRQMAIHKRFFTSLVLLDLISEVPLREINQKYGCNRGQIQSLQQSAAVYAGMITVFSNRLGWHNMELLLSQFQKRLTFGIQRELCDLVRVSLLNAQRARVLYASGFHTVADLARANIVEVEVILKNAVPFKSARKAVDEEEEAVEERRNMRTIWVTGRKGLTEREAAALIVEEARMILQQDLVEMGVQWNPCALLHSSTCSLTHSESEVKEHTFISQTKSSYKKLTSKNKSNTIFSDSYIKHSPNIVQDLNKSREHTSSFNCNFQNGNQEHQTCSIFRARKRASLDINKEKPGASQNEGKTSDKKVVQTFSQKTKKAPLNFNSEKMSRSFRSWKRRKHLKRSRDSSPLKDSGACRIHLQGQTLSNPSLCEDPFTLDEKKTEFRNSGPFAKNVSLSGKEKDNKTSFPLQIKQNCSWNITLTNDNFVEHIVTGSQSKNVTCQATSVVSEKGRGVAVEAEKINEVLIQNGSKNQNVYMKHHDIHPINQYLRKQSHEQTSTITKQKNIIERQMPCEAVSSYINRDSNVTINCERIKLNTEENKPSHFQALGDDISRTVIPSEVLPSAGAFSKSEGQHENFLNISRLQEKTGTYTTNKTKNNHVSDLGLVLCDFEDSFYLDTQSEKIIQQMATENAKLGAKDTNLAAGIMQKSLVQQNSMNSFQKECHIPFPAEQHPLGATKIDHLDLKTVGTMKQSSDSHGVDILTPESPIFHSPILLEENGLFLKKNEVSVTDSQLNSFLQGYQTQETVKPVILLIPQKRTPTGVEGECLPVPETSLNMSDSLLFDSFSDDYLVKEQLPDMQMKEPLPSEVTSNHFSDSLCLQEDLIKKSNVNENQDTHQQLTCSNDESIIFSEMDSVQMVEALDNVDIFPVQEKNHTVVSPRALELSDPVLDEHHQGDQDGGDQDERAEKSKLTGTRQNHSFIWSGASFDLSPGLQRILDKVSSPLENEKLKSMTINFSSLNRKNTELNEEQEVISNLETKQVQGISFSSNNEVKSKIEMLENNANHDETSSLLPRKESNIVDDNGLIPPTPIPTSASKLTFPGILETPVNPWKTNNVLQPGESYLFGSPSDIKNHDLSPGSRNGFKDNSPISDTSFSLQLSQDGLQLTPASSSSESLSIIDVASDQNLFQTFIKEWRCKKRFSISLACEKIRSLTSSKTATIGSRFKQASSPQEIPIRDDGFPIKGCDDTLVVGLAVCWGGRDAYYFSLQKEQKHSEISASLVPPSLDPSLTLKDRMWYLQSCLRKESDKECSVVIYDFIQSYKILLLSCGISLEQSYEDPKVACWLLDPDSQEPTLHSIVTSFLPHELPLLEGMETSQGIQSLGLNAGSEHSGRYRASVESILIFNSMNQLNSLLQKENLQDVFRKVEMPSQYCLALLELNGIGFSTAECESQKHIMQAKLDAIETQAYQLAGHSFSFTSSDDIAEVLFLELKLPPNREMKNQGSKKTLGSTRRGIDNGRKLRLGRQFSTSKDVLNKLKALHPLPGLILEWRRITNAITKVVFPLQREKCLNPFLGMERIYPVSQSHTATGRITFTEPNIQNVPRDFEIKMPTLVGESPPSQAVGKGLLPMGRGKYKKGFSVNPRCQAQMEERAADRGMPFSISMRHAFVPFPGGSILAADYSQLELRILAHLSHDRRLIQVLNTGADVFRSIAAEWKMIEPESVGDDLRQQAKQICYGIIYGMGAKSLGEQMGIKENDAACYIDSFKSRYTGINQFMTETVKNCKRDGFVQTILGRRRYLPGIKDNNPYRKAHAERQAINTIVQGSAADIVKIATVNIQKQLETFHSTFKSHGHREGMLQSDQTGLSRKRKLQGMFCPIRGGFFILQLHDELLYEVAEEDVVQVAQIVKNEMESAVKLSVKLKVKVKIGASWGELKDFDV
SMILES = O=C(NCc1ncc(C(F)(F)F)cc1Cl)c1ccc2c(c1)C1(CCS(=O)(=O)CC1)[C@@H](C1CC1)N2S(=O)(=O)c1ccc(F)cc1; target = PNCK (Homo sapiens, UniProt Q6P2M8); assay = cell-free assay, competition with immobilised ligand; conditions = 1 µM; measurement = remaining binding; result = 96%
SMILES = COP(=O)(OC)C(O)C(Cl)(Cl)Cl (centres unmarked); target = POLQ ATPase domain; assay = enzyme activity, inhibitor; conditions = 77 µM; scale = relative to: untreated; measurement = remaining activity; result = 91.2%
SMILES = CNC(=O)c1cc(C(=O)NC2CC2)cn(Cc2ccccc2)c1=O; target = DRD3 (Homo sapiens, UniProt P35462); assay = binding, radioligand binding; conditions = 10 µM; measurement = inhibition; result = 1.54%
SMILES = C[C@]12CC[C@@H](O)C[C@@H]1CC[C@@H]1[C@@H]2CC[C@]2(C)C(=O)CC[C@@H]12; target = POLQ ATPase domain; assay = enzyme activity, inhibitor; conditions = 77 µM; scale = relative to: untreated; measurement = remaining activity; result = 103%
SMILES = COc1ccc2c(c1)O[C@@H](c1ccc(OC)c(OC)c1)C[C@H]2NC(=O)C1(c2ccc3c(c2)OC(F)(F)O3)CC1; target = CRK2 (Plasmodium falciparum, UniProt P61075); assay = cell-free assay, competition with immobilised ligand; conditions = 1 µM; measurement = remaining binding; result = 84%
SMILES = C[C@@H]1CN([C@H]2CC[C@](C#N)(c3ccc(F)cc3)CC2)CC[C@]1(C(=O)O)c1ccccc1; target = POLQ ATPase domain; assay = enzyme activity, inhibitor; conditions = 77 µM; scale = relative to: untreated; measurement = remaining activity; result = 91.7%
SMILES = CNC(=O)Nc1ccc2c(c1)CC[C@]21OC(=O)N(CC(=O)N(Cc2ccc(F)cc2)[C@@H](C)C(F)(F)F)C1=O; target = SLC6A3 (Homo sapiens, UniProt Q01959); assay = ligand displacement; conditions = 10 µM; measurement = inhibition; result = 63.9%

A few entries again (mixed results):
SMILES = COP(=O)(OC)C(O)C(Cl)(Cl)Cl (centres unmarked); target = POLQ ATPase domain; assay = enzyme activity, inhibitor; conditions = 77 µM; scale = relative to: untreated; measurement = remaining activity; result = 91.2%
SMILES = COc1ccc2c(c1)O[C@@H](c1ccc(OC)c(OC)c1)C[C@H]2NC(=O)C1(c2ccc3c(c2)OC(F)(F)O3)CC1; target = CRK2 (Plasmodium falciparum, UniProt P61075); assay = cell-free assay, competition with immobilised ligand; conditions = 1 µM; measurement = remaining binding; result = 84%
